# Measurements collected from several papers.
# Each line is one published result; not all experiments were run side by side.
Compound,organism,test,test system,MIC90 [µg/mL]
COc1ccc2c(ccc3oc([N+](=O)[O-])c(C)c32)c1,Mycobacterium avium subsp. hominissuis,REMA,ATCC 25291,> 32
CCCCCC/C=C\CCCCCCCCCC(=O)CP(=O)(O)O,Bacillus cereus,,1056,0.2
CC[C@H]1OC(=O)[C@H](C)[C@@H](O[C@H]2C[C@@](C)(OC)[C@@H](O)[C@H](C)O2)[C@H](C)[C@@H](O[C@@H]2O[C@H](C)C[C@H](N(C)C)[C@H]2O)[C@](C)(O)C[C@@H](C)CN(C)[C@H](C)[C@@H](O)[C@]1(C)O,Enterococcus faecalis and Enterococcus faecium,,,> 32
CCCCc1c([N+](=O)[O-])oc2ccc3ccccc3c12,Mycobacterium avium subsp. hominissuis,REMA,ATCC 25291,16
CCCCCCCCCCCCCCCC(=O)CP(=O)(O)O,Bacillus cereus,,1056,0.05
Cn1c(=O)ccc2ccc(F)c(CCNC[C@H]3CN(c4cnc5c(n4)NC(=O)CO5)C(=O)O3)c21,Helicobacter pylori,,,< 0.015
CCCCCCCCCCCCCCNC(=O)CP(=O)(O)O,Bacillus cereus,,1056 strains,3.13
CCC[C@@H]1C[C@@H](C(=O)N[C@@H]([C@H]2O[C@H](SC)[C@H](O)[C@@H](O)[C@H]2O)[C@H](C)Cl)N(C)C1,Enterococcus faecalis and Enterococcus faecium,,,> 32
CCc1c([N+](=O)[O-])oc2ccc3ccccc3c12,Enterobacter cloacae,REMA,,1
CC(=O)N[C@H]1[C@@H](O[C@@H]2O[C@H](C[C@@H](O)[C@H]3O[C@@H](n4ccc(=O)[nH]c4=O)[C@H](O)[C@@H]3O)[C@H](O)[C@H](O)[C@H]2NC(=O)/C=C/CCCCCCCCCC(C)C)O[C@H](CO)[C@@H](O)[C@@H]1O,Bacillus cereus,microplate alamar blue,NRRL B-568,0.2
C[C@H]1COc2c(N3CCN(C)CC3)c(F)cc3c(=O)c(C(=O)O)cn1c23,Enterococcus faecalis and Enterococcus faecium,,,> 32
Nc1c([N+](=O)[O-])oc2ccc3ccccc3c12,Mycobacterium avium subsp. hominissuis,REMA,ATCC 25291,> 32
